Experimental data pooled from the literature.
Compare with care: the assays were run in different laboratories. Several values in a cell are separate wells, animals, samples, runs or records. Numbers after ± are the reported error.

SMILES | target or system | assay | system | conditions | scale | endpoint | result
O=C(C[C@@H](C(F)F)n1ccc(F)n1)N1CCC(O)(Cn2cnc3c(cnn3-c3ccc(F)cc3)c2=O)CC1 | CHP-212 parental | annexin V/PI flow cytometry |  | 0.1 µM, 48 h |  | apoptotic cells | 24.3%
Cc1ccc(C=NNC(=O)C2CC(=O)N(c3ccc(F)cc3F)C2)cc1 (centres unmarked) | PPC-1 and fibroblast spheroids | MTT |  | 10 µM, day 8 |  | viability reduction, up to | 30%
CC1(C)COc2ccc(F)cc2CN2c3nc4c(cnn4cc3OC[C@H]2C(F)F)C(=O)N1 | Ba/F3 EML4-ALK v1 | cell viability |  |  |  | Emax | 99.4%
Nc1cccc2c1C(=O)N(C1CCC(=O)NC1=O)C2=O (centres unmarked) | MM1.S | XTT |  | 3 µM |  | viability | 14% and 13% and 9%
C[n+]1cc2c3c(ccc2c2ccc4cc5c(cc4c21)OCO5)OCO3 | Toxoplasma gondii | bradyzoite growth |  | pH 8.2, alkaline-induced bradyzoites |  | EC50 | 4 µM
O=C(Nc1nnc2n3c(Cc4ccccc4)n[nH]c3nc(-c3ccc(Cl)cc3)c1-2)c1ccccc1 | MDA-MB-231/ATCC | NCI60 SRB |  | 10 µM |  | growth percent | 96.3%
C=CC1=C(C)c2cc3[n-]c(cc4nc(cc5[n-]c(cc1n2)c(C)c5C=C)C(C)=C4CCC(=O)O)c(CCC(=O)O)c3C.[Zn+2] | SH-SY5Y | RNA-seq, measured: SYNJ2 mRNA |  | 5 µM, 5 h | relative to: untreated cells | fold change | 2.71
Cc1cc(C)nc(SCC(=O)Nc2ncc(Cc3cccc(OCc4cn(Cc5ccc(OCCN6CCOCC6)cc5)nn4)c3)s2)n1 | PC-3M-luc | cell viability, MTS |  | 10 µM |  | inhibition | 30.9 ± 2.2%
COc1ccc(-n2nc(C(C)=O)s/c2=N\N=C(/C)c2ccc(NC(=O)c3ccccc3)cc2)cc1 | HepG2 |  |  | 0.312 µM |  | toxicity | 10.6%
Cc1c(C(=O)O)ccc2c3n(nc12)[C@@H]1[C@H](C3)N(CC2CC2)[C@@]2(C(=O)Nc3cc(Cl)ccc32)[C@H]1c1cccc(Cl)c1F | DK-MG | cell proliferation, alamarBlue |  |  |  | IC50 | 0.00026 µM
CC(C)NCC(O)c1ccc(O)c(O)c1 (centres unmarked) | mouse ventricular cardiomyocytes |  |  | dose not given, 0.147 s |  | sarcomere length | 1.59 µm
CC(C)(C)c1cc(C(C)(C)C)c(NC(=O)c2c[nH]c3ccccc3c2=O)cc1O | Caco-2 CFTR knockout | ELISA |  | concentration not given |  | IL-15 level | 4.56e+06 pg/mL
Cc1cc(C)n(-c2nc(-c3ccc(Cl)cc3)c3c(NC(=O)c4ccccc4)nnc-3[nH]2)n1 | MDA-MB-231/ATCC | NCI60 SRB |  | 10 µM |  | growth percent | 74.2%
NC1(c2ccc(-c3nc4ccn5c(=O)[nH]nc5c4cc3-c3ccccc3)cc2)CCC1 | MDA-MB-468 | flow cytometry PI |  | EC60, 72 h |  | G2/M phase cells | 27.7%
C/C=C/C/C=C/CCC(=O)[C@H]1O[C@H]1C(N)=O | MCF-10A | CellTiter-Glo |  | concentration not given, replicate C | relative to: normalised luminescence | viability | 95.1%
CCCNC(=O)[C@H]1O[C@@H]1C(=O)N[C@H](C(=O)N1CCC[C@H]1C(=O)OC)[C@@H](C)CC | MCF-10A | cell viability, MTT |  | 4 h, dark |  | EC50 | > 100 µM
Nc1ncnc2c1ncn2[C@@H]1O[C@H](CO)[C@@H](O)[C@H]1O | activated human T cells |  |  | concentration not given | relative to: DMSO | T cell proliferation | 34.4% and 12.5% and 17% and 31.3% and 24.2%
O=S(=O)(O)O | human neutrophils | anion exchange, substrate, sulfate influx |  | pH 7.4, glucuronate medium, together with: Cl- |  | Km | 12.5 mM
N#Cc1ccc(C[C@H](Nc2nnc(-c3cccc(Br)c3)s2)C(=O)N2CCc3ccccc32)cc1 | human neutrophils | calcium mobilization, agonist |  |  |  | EC50 | 36.3 ± 6.7 µM
Cn1cc(-c2ccc(-c3cncc(Cl)c3N3CCC4(CCNC4=O)CC3)cc2)cn1 | COLO 205 | gene expression, microarray, measured: CCNB1 mRNA |  | concentration not given, 6 h | relative to: untreated cells | log2 fold change | -2.54
Cc1cc(Nc2ncc(Cl)c(Nc3ccccc3S(=O)(=O)C(C)C)n2)c(OC(C)C)cc1C1CCNCC1 | CLB-BAR | phosphoproteomics LC-MS/MS, measured: WDR62 phosphorylation |  | 200 nM, 60 min | relative to: untreated | log2 fold change | -1.58
COc1ccc(NC(=O)c2c(Nc3ccccc3)sc(C#N)c2NC(=O)CNc2ccc(Cl)cc2)cc1 | HepG2 | flow cytometry |  | IC50, 24 h |  | cells in G1 | 45.4 ± 5.12%
CCCCc1oc2ccccc2c1C(=O)c1cc(I)c(OCCN(CC)CC)c(I)c1 | human embryonic stem cell aggregates | microarray |  | 4 µM, 120 h, fold change above 1.5 |  | up-regulated genes number | 279
Cc1ccc(CNC(=O)Cn2cc(CSc3nc4ccccc4[nH]3)nn2)cc1 | MDA-MB-231 | MTT |  | 250 ppm |  | cytotoxicity | 93.5%

SMILES | target or system | assay | system | conditions | scale | endpoint | result
c1ccc2[nH]ccc2c1 | HCT-8 | RNA-seq, measured: ASNS |  | concentration not given |  | mRNA level, LS mean | 157 counts per million
O=C(c1ccc(OCCN2CCCCC2)cc1)c1c(-c2ccc(O)cc2)sc2cc(O)ccc12 | Toxoplasma gondii | parasite growth, luciferase reporter | HFF, tachyzoite | 72 h |  | EC50 | 10 µM
Cn1cc(Nc2nccc(-c3ccc4c(c3)CN(C3COC3)CC[C@H]4NC(=O)c3cn(C(C)(C)C)nn3)n2)cn1 | mouse splenic B cells | measured: Interferon signalling |  | 30 mg/kg, IgD-activated in vivo | relative to: vehicle, direction not given | pathway activation z-score | 2.24
O=C(/C=C/C=C/C=C/C1CCCCC1)NC1=C[C@@](O)(/C=C/C=C/C=C/C(=O)NC2=C(O)CCC2=O)[C@@H]2O[C@@H]2C1=O | lmsu | cell growth, inhibitor, CellTiter-Glo luminescence |  | 78 h | relative to: day 0 cell count | GI50 | 9.46 µM
CCCCCCCCCCCCCC[N+](C)(C)C | GH3 | Na+ channel |  | external application, repetitive pulses |  | Kd | 2 µM
Cc1cc(Nc2ncc(Cl)c(Nc3ccccc3S(=O)(=O)C(C)C)n2)c(OC(C)C)cc1C1CCNCC1 | Ba/F3 EML4-ALK v1 | cell viability |  |  |  | Emax | 100%
CCn1cc(-c2cc(Cn3ccnc3)cc3c2CCN([C@H](c2cc(OC)ccn2)C2CC2)C3=O)c(C(F)(F)F)n1 | SBC-5 | cell growth, inhibitor |  | 120 h |  | EC50 | 28.3 µM
C#C[C@@]1(O)[C@@H](CO)O[C@@H](n2cc(Cl)c3c(N)ncnc32)[C@@H]1O | NCI60 panel | cell viability |  | mean over panel |  | LC50 | -4.16 log M and -4.25 log M
Cc1ccc(NC(=O)[C@H]2CCCN(C(=O)c3c(C)cccc3F)[C@H]2c2ccc(NC3CCCC3)cc2)cc1C(F)(F)F | human peripheral blood neutrophils | NET formation |  | 1 µM, together with: MPO-ANCA immune complex, C5a |  | citrullinated histone H3 per neutrophil | 11.3 and 9.61 and 7.15 and 9.98
CC/C=C\C[C@H](O)/C=C/C=C\C/C=C\C=C\[C@@H](O)C/C=C\CCC(=O)O | HUVEC with GNAS siRNA knockdown | HTRF |  | concentration not given |  | cAMP level | decreased
CCn1cc(-c2cc(Cn3ccoc3=N)cc3c2CCN([C@@H](C)c2cc(OC)ccn2)C3=O)c(C(F)(F)F)n1 | SNU1079 | cell growth |  | 120 h |  | EC50 | > 30 µM
CCCN1CCN(c2ccc3[nH]c(-c4ccc5[nH]c(-c6ccc(C(F)(F)F)cc6)nc5c4)nc3c2)CC1 | Malme-3M | SRB |  | 10 µM, 48 h |  | growth percent | -64.7%
N#Cc1ccc(C[C@H](Nc2nnc(-c3ccc(Br)cc3)o2)C(=O)N2CCc3ccccc32)cc1 | human neutrophils | calcium mobilization, agonist |  |  |  | EC50 | 4.3 ± 0.3 µM
CC1(C)CCC(CN2CCN(c3ccc(C(=O)NS(=O)(=O)c4ccc(NCC5CCOCC5)c([N+](=O)[O-])c4)c(Oc4cnc5[nH]ccc5c4)c3)CC2)=C(c2ccc(Cl)cc2)C1 | THP-1 | annexin V/PI flow cytometry, measured: annexin V+/PI- |  | 0.2 µM, 24 h |  | early apoptotic cells | 3.4%
Cc1nn(-c2nc3c(F)cc(F)cc3s2)c(O)c1C(c1ccc(C(F)(F)F)cc1)c1c(C)nn(-c2nc3c(F)cc(F)cc3s2)c1O | THP1-Dual | IFN luciferase reporter |  | 1.25 µM, together with: HT-DNA |  | inhibition | -0.869% and 0.012% and 5.55% and 1.26% and -6.28% and -6.65%
CC1CC(OC(=O)C(O)c2ccccc2)CC(C)(C)C1 (centres unmarked) | MCF-10A | CellTiter-Glo |  | concentration not given | relative to: normalised, mean of replicates | viability | 88.5%
CC/C(=N\NC(=O)C(C)Nc1ccccc1)c1ccc(O)c(C)c1O (centres unmarked) | SK-OV-3 | Western blot, measured: phospho-YAP |  | 10 µM, 3 h, 2D culture, unit not given | relative to: total YAP | protein level | 0.31 ± 0.16
COc1cnc2cccc(N3CCc4c(cc(Cn5ccnc5C)cc4-c4cn(C)nc4C(F)(F)F)C3=O)c2c1 | HuCCT-1 | cell growth, inhibitor |  | 120 h |  | EC50 | > 30 µM
COc1c(C)c(OC(C)=O)c(C)c(OC(C)=O)c1C(=O)/C=C/c1ccccc1 | FaDu | SRB |  |  | relative to: normal over FaDu IC50 | selectivity index | 0.81
CC(C)(C)c1cc(O)ccc1O | HepG2 | extracellular flux, measured: reserve respiratory capacity |  | 1 h, distribution mode 2 |  | point of departure | 14.1 µM
O=C1N(Cc2cccc3ccccc23)c2ccccc2C12NN=C(c1ccccc1)S2 (centres unmarked) | SK-N-BE(2) and SK-N-SH neuroblastoma | MTT |  | 10 µM, 24 h |  | viability loss | 50 to 60%
Cn1cc(-n2cnc3c(NCc4nc5cc(Cl)c(Cl)cc5[nH]4)nc(N4CCOCC4)nc32)cn1 | MDA-MB-231 | cell viability, CellCounting-Lite |  | 0.3048 nM, 37 °C | higher = more viable cells | luminescence signal | 470000 a.u. and 462000 a.u. and 429000 a.u.
CCc1cnc(N2CCC(c3nc(COc4ccc(-n5cnnn5)cc4)cs3)CC2)nc1 | HEK-293T | RNA-seq GSEA, measured: HALLMARK_HEDGEHOG_SIGNALING |  | concentration not given | direction not given | normalized enrichment score | 1.47
